Published values collected from several papers.
Each numbered part is a random draw from the data of one study; scales do not carry over between parts. Several values in a cell are separate wells, animals, samples, runs or records.

Study 1
Molecule: PhoQ, residues 284 288 289 292 302 303 GNNTDL
Method: Sort-seq
Refers to: YFP reporter
Sample: E. coli
Notes: PhoQ-PhoP variant library
With: 10 µM Mg2+
Baseline: high Mg2+ state
Direction: higher = stronger signaling
For PhoP, residues 12 14 15 18 19 TQCLL (Escherichia coli, UniProt P23836): fold induction read 1.75.
PhoP, residues 12 14 15 18 19 VHTVL (Escherichia coli, UniProt P23836) — fold induction: 2.78.
For PhoP, residues 12 14 15 18 19 ICWRQ (Escherichia coli, UniProt P23836): fold induction read 6.53.

Study 2
Target: LIM domain kinase 1 (LIMK1, Homo sapiens, UniProt P53667)
Chain of UniProt P53667 (whole entry, looked up): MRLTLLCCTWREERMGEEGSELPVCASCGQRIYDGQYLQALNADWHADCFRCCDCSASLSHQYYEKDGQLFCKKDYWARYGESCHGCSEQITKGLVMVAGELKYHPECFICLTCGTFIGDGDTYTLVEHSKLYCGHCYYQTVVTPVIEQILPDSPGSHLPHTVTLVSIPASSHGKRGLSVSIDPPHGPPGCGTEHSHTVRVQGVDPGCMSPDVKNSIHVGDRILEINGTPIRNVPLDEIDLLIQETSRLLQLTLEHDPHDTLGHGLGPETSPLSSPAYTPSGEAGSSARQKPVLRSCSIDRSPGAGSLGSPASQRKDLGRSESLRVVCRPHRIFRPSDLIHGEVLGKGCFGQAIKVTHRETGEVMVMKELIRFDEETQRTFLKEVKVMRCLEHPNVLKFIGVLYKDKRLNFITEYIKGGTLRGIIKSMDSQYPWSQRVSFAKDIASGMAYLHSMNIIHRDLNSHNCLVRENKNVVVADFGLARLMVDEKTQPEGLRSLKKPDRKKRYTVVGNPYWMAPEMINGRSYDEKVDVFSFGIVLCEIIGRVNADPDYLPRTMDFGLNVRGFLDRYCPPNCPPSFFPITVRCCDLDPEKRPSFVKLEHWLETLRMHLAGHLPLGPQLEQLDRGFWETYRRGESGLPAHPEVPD
Observed: enzyme activity
Mode: inhibitor
Concentration: 0.5 µM
Baseline: control
CCN(CC)CCNC(=O)c1c(C)[nH]c(/C=C2\C(=O)Nc3ccc(Cl)cc32)c1C gave a remaining activity of 98.4%.
CN(C)C[C@H]1CCn2c(c(C3=C(c4cn(C)c5ccccc45)C(=O)NC3=O)c3ccccc32)C1 gave a remaining activity of 89.4%.
The remaining activity of c1ccc(-c2cnc(Nc3ccc(OCCN4CCCC4)cc3)s2)cc1 is reported as 66.8%.
With Cc1cn(-c2cc(NC(=O)c3ccc(C)c(Nc4nccc(-c5cccnc5)n4)c3)cc(C(F)(F)F)c2)cn1 the remaining activity was 94%.
O=C1c2ccccc2-c2n[nH]c3cccc1c23 has a remaining activity of 78.1%.
For Ic1cccc(CSc2nnc(-c3ccncc3)o2)c1, the remaining activity was 85.8%.
The remaining activity of Cn1nc2c3c(cccc31)C(=O)c1ccccc1-2 is reported as 97.1%.
The remaining activity of CCOc1nc(NC(=O)Cc2cc(OC)ccc2OC)cc(N)c1C#N is reported as 103%.
With Cc1nc2cc3nc(-c4cccs4)cnc3cc2n1C the remaining activity was 112%.
COc1cc2ncnc(Nc3ccc(O)c(Br)c3)c2cc1OC gave a remaining activity of 85.1%.
For O=C1C(Cl)=C(N2C(=O)CCC2=O)C(=O)c2ccccc21, the remaining activity was 92.5%.
With Nc1cccc(-c2cc3c(Oc4cccc(O)c4)ncnc3[nH]2)c1 the remaining activity was 22.1%.

Study 3
Target: 5-hydroxytryptamine receptor 1E (HTR1E, Homo sapiens, UniProt P28566)
Chain of UniProt P28566 (whole entry, looked up): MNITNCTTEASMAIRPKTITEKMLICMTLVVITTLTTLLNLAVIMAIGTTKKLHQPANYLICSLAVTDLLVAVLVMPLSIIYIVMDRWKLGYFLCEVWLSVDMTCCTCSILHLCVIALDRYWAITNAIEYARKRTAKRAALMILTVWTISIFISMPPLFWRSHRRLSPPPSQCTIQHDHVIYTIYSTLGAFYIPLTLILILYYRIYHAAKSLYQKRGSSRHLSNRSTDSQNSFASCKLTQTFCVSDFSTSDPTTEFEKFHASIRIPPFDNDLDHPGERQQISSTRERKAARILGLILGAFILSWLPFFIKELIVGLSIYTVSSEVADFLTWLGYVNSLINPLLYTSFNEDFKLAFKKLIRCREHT
Observed: ligand displacement
Method: radioligand
Concentration: 10 µM
The inhibition of Cc1c(NC(=O)c2cc(C(N)=O)nc3cc(F)ccc23)c(C(F)(F)F)nn1Cc1ccc(C(C)(C)C)cc1 is reported as 7.98%.
With Cc1cc(NC(=O)c2cccc(S(F)(F)(F)(F)F)c2)cc(-n2ccn3nc(-c4cccnc4)cc23)c1 the inhibition was 10.6%.
The inhibition of CN(C)CC#Cc1ccc(OCCCc2sc(N3CCc4cccc(C(=O)Nc5nc6ccccc6s5)c4C3)nc2C(=O)O)c(F)c1 is reported as -4.32%.
With O=C(N1CCS(=O)(=O)CC1)N1C[C@H](c2ccc(OC(F)(F)F)cc2)C[C@H](c2nc(C3CC3)no2)C1 the inhibition was -20.3%.
For N#Cc1ccc(Nc2ccc3[nH]c(=O)[nH]c3c2)c(Cl)c1, the inhibition was 12.6%.
Cn1nc(C(=O)NCc2ccc(C(=O)O)cc2)cc1-c1ccc2[nH]ccc2c1 gave an inhibition of 10.3%.
The inhibition of O=C1NC(c2ccccn2)Sc2ccccc21 (stereo not shown) is reported as -0.383%.
With CCC(=N\O)/C(C)=C/c1ccc(F)cc1 the inhibition was 6.66%.
CCS(=O)(=O)c1cc2cc(C[C@](O)(CC(C)(C)c3ccc(F)cc3C(N)=O)C(F)(F)F)[nH]c2cn1 gave an inhibition of 4.75%.
O=C(O)[C@H]1[C@H](Cn2nnc3ccccc3c2=O)CC[C@@H]1C(=O)c1ccc(OCCC2CCOCC2)cc1 has an inhibition of 7.37%.
O=S(=O)(NC1CCC(c2cc(F)ccc2F)(S(=O)(=O)c2ccc(Cl)cc2)CC1)C(F)(F)F (stereo not shown) gave an inhibition of -8.31%.
With CNCc1ccccc1-c1csc([C@@H](C)Nc2nc(C)nc3cc(OC)c(OC)cc23)c1 the inhibition was 5.81%.

Further values, each from its own experiment
The body weight of CC(=O)N[C@@H](Cc1c[nH]c2ccccc12)C(=O)N[C@@H](CCC(=O)C=[N+]=[N-])C(=O)OC(C)C is reported as 96.3% and 100% and 96.2% and 102% and 108% and 99.7% (C57BL/6 CES1-/- mice, MC-38 tumour; dose not given, day 49 after inoculation, with: anti-PD-1; baseline: initial).

For quick reference, copied from above (study 2):
CN(C)C[C@H]1CCn2c(c(C3=C(c4cn(C)c5ccccc45)C(=O)NC3=O)c3ccccc32)C1 gave a remaining activity of 89.4%.
The remaining activity of c1ccc(-c2cnc(Nc3ccc(OCCN4CCCC4)cc3)s2)cc1 is reported as 66.8%.
With Cc1cn(-c2cc(NC(=O)c3ccc(C)c(Nc4nccc(-c5cccnc5)n4)c3)cc(C(F)(F)F)c2)cn1 the remaining activity was 94%.
